Measured values gathered from unrelated publications.
Each line is one published result; not all experiments were run side by side. Numbers after ± are the reported error.

SMILES = Cc1cc(C)c([N+]#[C][Pt-]([Cl])([Cl])=[C](Nc2cccc(CN[C](Nc3c(C)cc(C)cc3C)=[Au][Cl])c2)Nc2c(C)cc(C)cc2C)c(C)c1; cell line = OVCAR-3; test = cell growth or viability; IC50 = > 100000 nM
SMILES = FC(F)(F)c1n[nH]cc1-c1nc2ccc3[nH]ncc3c2c2c1CC2; cell line = MV4-11; test = cell growth or viability, resazurin; conditions = 72 h; IC50 = 1530 nM
SMILES = [Cl][Au].[Se]=c1n(C23CC4CC(CC(C4)C2)C3)ccn1C12CC3CC(CC(C3)C1)C2; cell line = H157 spheroids; test = acid phosphatase; conditions = 72 h, 3D spheroid; IC50 = 5800 ± 700 nM
SMILES = Cc1nn(C)cc1-c1nc2ccc3[nH]ncc3c2c2c1CCCC2; cell line = MV4-11; test = cell growth or viability, resazurin; conditions = 72 h; IC50 = 744 nM
SMILES = O=C(NCc1cc(F)cc(F)c1)[C@@]1(O)CCN(c2ccc3[nH]ccc3c2)C1=O; cell line = A549 mock clone; test = cell viability, CellTiter-Blue; conditions = 96 h; IC50 = 120 nM
SMILES = CCC(C(=O)O)C1CCC(C)C(C(C)C(O)C(C)C(=O)C(CC)C2OC3(C=CC(NCc4cn(CCCCSC(C)=O)nn4)C4(CCC(C)(C5CCC(O)(CC)C(C)O5)O4)O3)C(C)CC2C)O1 (stereo not shown); cell line = HMLER CD24low/CD44high; test = cell proliferation; conditions = 72 h; IC50 = 460 ± 30 nM
SMILES = COc1cc(-c2nc3ccc(C(=O)NCCCN(C)C)cc3n2C2CCC2)cc(OC)c1OC; cell line = 293 T-BRE-Luc; test = reporter gene, inhibitor; conditions = 6 h, with: BMP7-induced BMP7 500 ng/mL; IC50 = 2610 nM
SMILES = O=C(Nc1ccccc1)c1ccccc1-n1c(=O)[nH]c2ccc(F)cc2c1=O; cell line = CHO-K1; test = cell viability, MTT; conditions = 24 h; IC50 = 83200 ± 1320 nM
SMILES = CC(C)c1cccc(C(C)C)c1N1CCN(c2c(C(C)C)cccc2C(C)C)C1=[Se].[Cl][Au]; cell line = A2780 ADR; test = MTT; conditions = 72 h; IC50 = 300 ± 40 nM
SMILES = C=CC(=O)Nc1ccc(F)c(-c2ncnc3[nH]cc(C(=O)OCC)c23)c1; cell line = mouse naive B cells; test = CD69 expression; conditions = with: anti-IgM; IC50 = > 1100 nM
SMILES = O=c1[nH]c(=O)n([C@@H]2O[C@H](CSSc3ccccn3)[C@@H](O)[C@H](F)[C@H]2O)cc1F; cell line = L1210; test = cell growth or viability; IC50 = 54000 nM
SMILES = CONC(=O)[C@H]1[C@@H](O)[C@@]2(O)c3c(cc(OC)nc3OC)O[C@@]2(c2ccc(C#N)cc2)[C@@H]1c1ccccc1; cell line = 4T1-526; test = mRNA translation, inhibitor, puromycin incorporation; IC50 = ~7 nM
SMILES = CN1CCN(C(=O)c2ccc(-c3ccc4[nH]c5ncc(/C=C/c6ccccc6)cc5c4c3)cc2)CC1; cell line = parental Ba/F3 (IL-3 dependent); test = cell proliferation, [3H]-thymidine incorporation; IC50 = 1100 nM
SMILES = CC(C)Cc1ccc(C(C)C(=O)[O][Pt]([NH2])([NH2])([Cl])([Cl])[O]C(=O)C(Cl)Cl)cc1 (stereo not shown); cell line = 2008 cisplatin-sensitive; test = cytotoxicity, MTT; conditions = 72 h; IC50 = 320 ± 90 nM
SMILES = C/C1=C\CC[C@@]2(C)O[C@H]2[C@H]2OC(=O)[C@@H](CSC(=S)N3CCCC3)[C@@H]2CC1; cell line = KG-1a; test = cell growth or viability, MTT; conditions = 72 h; IC50 = 11700 nM
SMILES = Cc1ccc(CC(=O)N(CCCn2ccnc2)c2nc3ccccc3s2)c(C)c1; cell line = SW620 cells; test = colony formation; IC50 = 8340 nM
SMILES = COc1cc(-c2cc(=O)c3c(O)cc(OC4OC(COC5OC(C)C(O)C(O)C5O)C(O)C(O)C4O)cc3o2)ccc1O (stereo not shown); cell line = MDA-MB-231-pcDNA breast cancer; test = cytotoxicity, resazurin reduction; conditions = 72 h; IC50 = > 100000 nM
SMILES = O=C([O][Ti+2][O]C(=O)c1ccc([P+]([Au-][Cl])(c2ccccc2)c2ccccc2)cc1)c1ccc([P+]([Au-][Cl])(c2ccccc2)c2ccccc2)cc1.c1cc[cH-]c1.c1cc[cH-]c1; cell line = CAKI-1; test = cell viability, XTT; conditions = 72 h; IC50 = 1000 nM
SMILES = O=C(O)CCCc1ccccc1; cell line = A-375; test = cell growth or viability; conditions = 72 h; IC50 = 25600 nM
SMILES = COc1ccc(CCC(=O)c2c(O)cc(OC)cc2O)cc1; cell line = K562; test = NF-κB activity, inhibitor, luciferase; conditions = TNF-stimulated; IC50 = 11000 nM
SMILES = CCC(C(=O)O)C1CCC(C)C(C(C)C(O)C(C)C(=O)C(CC)C2OC3(C=CC(NCc4cn(COC(=O)C(C)(C)C)nn4)C4(CCC(C)(C5CCC(O)(CC)C(C)O5)O4)O3)C(C)CC2C)O1 (stereo not shown); cell line = HMLER CD24low/CD44high; test = cell proliferation; conditions = 72 h; IC50 = 3340 ± 80 nM
SMILES = O=C(COc1ccc(-c2ccccc2)cc1)N[C@@H]1O[C@H](CO)[C@@H](O)[C@H](O)[C@H]1O; cell line = L1210; test = cell growth or viability; conditions = 48 h; IC50 = > 250000 nM
SMILES = CC1(C)Cc2c(-c3ccccc3)c(-c3ccc(Cl)cc3)c(CC(=O)NCC(=O)O)n2C1; cell line = mouse Peritoneal macrophage; test = PGE2 release, inhibitor; conditions = LPS-stimulated; IC50 = 780 nM
SMILES = CN1CCN(c2ccc(-c3ccc4[nH]c5ncc(/C=C/c6ccccc6)cc5c4c3)cc2)CC1; cell line = parental Ba/F3 (IL-3 dependent); test = cell proliferation, [3H]-thymidine incorporation; IC50 = 840 nM
SMILES = C#CCOc1ccc(C(=O)c2ccc(NC(=O)C(=O)NCCc3ccc(OC)cc3)cc2)cc1; cell line = NCI-H2122; test = cell growth or viability; IC50 = 14 nM
SMILES = COc1cccc(-c2ccc(Nc3ccc(CN(C)C)cc3)c(OC)c2F)c1; cell line = SNU1; test = HTRF, measured: total Akt; IC50 = 527000 nM
SMILES = COC(=O)[C@H]1[C@H]2C[C@H]3O[C@@]4(CCN3C[C@H]2C[C@@H](OC(=O)c2cc(OC)c(OC)c(OC)c2)[C@@H]1OC)C(=O)Nc1cc(OC)c(-c2ccc(F)cc2)cc14; cell line = SU-DHL-4; test = cell growth or viability, trypan blue; conditions = 72 h; IC50 = 2260 nM
SMILES = COC1CCC(Nc2nc(-c3nccn3C)nc3sc(-c4ccn(C)n4)c(-c4ccccc4)c23)C1 (stereo not shown); cell line = NCI-H1975 (KRAS wild type); test = Western blot, measured: phospho-MEK and phospho-ERK1/2; conditions = 6 h, with: EGF 15 min; IC50 = ~5000 nM
SMILES = CCCC(CCC)C(=O)[O][Pt]([NH2])([NH2])([Cl])([Cl])[O]C(=O)C(C)c1ccc(CC(C)C)cc1 (stereo not shown); cell line = 2008 cisplatin-sensitive; test = cytotoxicity, MTT; conditions = 72 h; IC50 = 1350 ± 290 nM
SMILES = COc1cc(-c2coc3cc(O)cc(O)c3c2=O)ccc1O; cell line = MDA-MB-231, Huh-7, KKU100, NHDF cells; test = cell viability, MTT; conditions = 24 h; IC50 = > 100000 nM
SMILES = CC(C)C[C@H](NC(=O)[C@H](CO)NC(=O)[C@H](Cc1c[nH]cn1)NC(=O)CCc1cn(CC(=O)OCC(=O)[C@@]2(O)[C@H](C)C[C@H]3[C@@H]4CCC5=CC(=O)C=C[C@]5(C)[C@@]4(F)[C@@H](O)C[C@@]32C)nn1)C(=O)NCC(=O)N[C@@H](CCCCN)C(=O)N[C@@H](Cc1c[nH]c2ccccc12)C(=O)N[C@@H](CC(C)C)C(=O)NCC(=O)N[C@@H](Cc1c[nH]cn1)C(=O)N1CCC[C@H]1C(=O)N[C@@H](CC(=O)O)C(=O)N[C@@H](CCCCN)C(=O)N[C@@H](Cc1ccccc1)C(=O)O; cell line = EAE splenocytes at disease peak; test = cellular metabolism; conditions = 120 h; scale = relative to: untreated EAE splenocytes; IC50 = 7.55 ± 2.8 nM
SMILES = [NH2][Pt]1([NH2])([Cl])([O]C(=O)C(F)(F)F)[O]C(=O)C2(CC(=O)C2)C(=O)[O]1; cell line = SGC-7901/CDDP cisplatin-resistant; test = cell viability, MTT; conditions = 48 h; IC50 = 92600 ± 1560 nM
SMILES = Cc1cc(C)c([N+]#[C][Pd-2]([Cl])([Cl])[C]#[N+]c2c(C)cc(C)cc2C)c(C)c1; cell line = OVCAR-3; test = cell growth or viability; IC50 = > 100000 nM
SMILES = CC(C)c1cccc(C(C)C)c1-n1c(Cl)c(Cl)n(-c2c(C(C)C)cccc2C(C)C)c1=[Se].[Cl][Ag]; cell line = LoVo-OXP (oxaliplatin-resistant); test = MTT; conditions = 72 h; IC50 = 700 ± 100 nM
SMILES = CCN(C(=O)c1cc(F)ccc1Oc1nncnc1N1CCC2(C1)CN([C@H](CCCN(C)CCOC)C(C)C)C2)C(C)C; cell line = KMT2A-rearranged AML lines except THP-1; test = cell growth; IC50 = < 100 nM
SMILES = CC(=O)Oc1ccccc1C(=O)[O][Pt]([NH2])([NH2])([Cl])([Cl])[O]C(=O)CCCc1ccccc1; cell line = 2008 cisplatin-sensitive; test = cytotoxicity, MTT; conditions = 72 h; IC50 = 290 ± 110 nM
SMILES = CC(C)c1cccc(C(C)C)c1-n1c2c([n+](-c3c(C(C)C)cccc3C(C)C)[c]1[Cu-][Cl])-c1cccc3cccc-2c13; cell line = PSN1; test = cell growth or viability, MTT; conditions = 72 h; IC50 = 7000 nM
SMILES = CC(=O)OC[C@H]1O[C@@H](NC(=O)COc2ccc(-c3ccccc3)cc2)[C@H](OC(C)=O)[C@@H](OC(C)=O)[C@@H]1OC(C)=O; cell line = L1210; test = cell growth or viability; conditions = 48 h; IC50 = 139000 nM
SMILES = CC(C)c1cccc(C(C)C)c1-n1ccn(-c2c(C(C)C)cccc2C(C)C)c1=[Se].[Cl][Ag]; cell line = PSN1; test = cell growth or viability, MTT; conditions = 72 h; IC50 = 7000 nM
SMILES = Cc1ccc(-c2nc(-c3ccccc3)c(-c3ccccc3)[nH]2)s1; cell line = human foreskin fibroblasts HFF; test = cell viability, colorimetric; conditions = 72 h; IC50 = > 1000 µg/mL
SMILES = COC(C)(C)C(O)COc1c2ccoc2cc2oc(=O)ccc12 (stereo not shown); cell line = L5178Y; test = cell growth or viability, MTT; conditions = 24 h; IC50 = 56400 nM
SMILES = CC(C)c1cccc(C(C)C)c1[N+]#[C][Pd-2]([Cl])([Cl])[C]#[N+]c1c(C(C)C)cccc1C(C)C; cell line = OVCAR-3; test = cell growth or viability; IC50 = > 100000 nM
SMILES = [Cl][Au-][c]1n(-c2c(C(c3ccccc3)c3ccccc3)cc(C(c3ccccc3)c3ccccc3)cc2C(c2ccccc2)c2ccccc2)c2c([n+]1-c1c(C(c3ccccc3)c3ccccc3)cc(C(c3ccccc3)c3ccccc3)cc1C(c1ccccc1)c1ccccc1)-c1cccc3cccc-2c13; cell line = PSN1; test = cell growth or viability, MTT; conditions = 72 h; IC50 = > 50000 nM
